Measured values of several laboratories.
Protocols differ between the studies behind these lines. ± gives the spread as reported.

| Compound | target | assay | test system | setting | IC50 [µM] |
| --- | --- | --- | --- | --- | --- |
| CCCCCc1cc(O)cc(O)c1C(=O)Oc1ccc(C(=O)O)c(O)c1 | DNA topoisomerase 1 (topA, Escherichia coli, UniProt P06612) | enzyme activity, inhibitor | – | – | 250 to 500 |
| COP(=S)(OC)Oc1ccc([N+](=O)[O-])cc1 | muscarinic receptors, rat | radioligand displacement | adult cortex membranes | 90 min, 21 °C, added: 1 nM [3H]oxotremorine-M | 0.0008 |
| Cc1c(CC(C)(C)C(=O)O)n(Cc2ccc(Cl)cc2)c2ccc(F)cc12 | KCNK18 (Homo sapiens, UniProt Q7Z418) | ion flux, inhibitor | – | – | 7.35 |
| [Br-].[Na+] | OXA-48 (Klebsiella pneumoniae, UniProt Q6XEC0) | enzyme activity, inhibitor | – | pH 7.2, with preincubation | 35000 |
| CC[C@H](C)[C@H](NC(=O)[C@H](CCCCN)NC(=O)[C@H](CCC(=O)O)NC(=O)[C@H](CCCCN)NC(=O)[C@H](CO)NC(=O)[C@H](CCCCN)NC(=O)[C@H](CCCNC(=N)N)NC(=O)[C@H](Cc1ccccc1)NC(=O)[C@H](Cc1ccccc1)NC(=O)[C@H](CC(=O)O)NC(=O)CNC(=O)[C@H](CC(C)C)NC(=O)[C@@H](N)CC(C)C)C(=O)NCC(=O)N[C@@H](CCCCN)C(=O)N[C@@H](CCC(=O)O)C(=O)N[C@@H](Cc1ccccc1)C(=O)N[C@@H](CCCCN)C(=O)N[C@@H](CCCNC(=N)N)C(=O)N[C@H](C(=O)N[C@H](C(=O)N[C@@H](CCC(N)=O)C(=O)N[C@@H](CCCNC(=N)N)C(=O)N[C@H](C(=O)N[C@@H](CCCCN)C(=O)N[C@@H](CC(=O)O)C(=O)N[C@@H](Cc1ccccc1)C(=O)N[C@@H](CC(C)C)C(=O)N[C@@H](CCCNC(=N)N)C(=O)N[C@@H](CC(N)=O)C(=O)N[C@@H](CC(C)C)C(=O)N[C@H](C(=O)N1CCC[C@H]1C(=O)N[C@@H](CCCNC(=N)N)C(=O)N[C@H](C(=O)N[C@@H](CCC(=O)O)C(=O)N[C@@H](CO)C(=O)O)[C@@H](C)O)C(C)C)[C@@H](C)CC)C(C)C)[C@@H](C)CC | Toll-like receptor 4/MD-2 (TLR4/LY96, Homo sapiens, UniProt O00206+Q9Y6Y9) | reporter gene, antagonist | HEK-Blue hTLR4 | added: LPS | 23.1 |
| COc1cc(/C=C(\C#N)C(=O)Nc2nnc(C(F)(F)F)s2)ccc1OCc1ccc(C(F)(F)F)cc1C(F)(F)F | PGC-1α/ERRα (human) | reporter gene, antagonist, luciferase reporter | – | 18 h, 2000 cells/well | 3.44 |
| COC(=O)[C@@]1(O)C[C@H]2O[C@]1(C)n1c3ccccc3c3c4c(c5c6ccccc6n2c5c31)C(=O)NC4 | PSMB5 (Homo sapiens, UniProt P28074) | enzyme activity | – | added: Suc-LLVY-AMC substrate, ATP | 9.2 ± 3.1 |
| CCOP(=O)(OCC)Oc1nc(Cl)c(Cl)cc1Cl | rat liver carboxylesterase | enzyme activity, inhibitor | rat, postnatal day 1, liver homogenate | added: p-nitrophenyl valerate | 2e-05 |
| O=C(O)c1cc(-c2ccccc2Cl)n[nH]1 | ALPL (Homo sapiens, UniProt P05186) | enzyme activity, inhibitor, luminescence | – | added: 300 µM CDP-star, 100 mM DEA | 0.81 ± 0.032 |
| NCc1ccc(-c2ncc(OCC3CCNCC3)nc2-n2ccnc2)cc1 | Genome polyprotein, NS2B-NS3 protease (ZIKV, UniProt A0A024B7W1) | inhibitor | Zika virus | – | 6.6 |
| Cc1c(Cc2ccccc2)c(=O)oc2cc(OS(C)(=O)=O)ccc12 | ALDH2 (Homo sapiens, UniProt P05091) | enzyme activity, inhibitor, NADH formation | – | pH 7.5, 25 °C, 1% DMSO, added: propionaldehyde 100 µM, NAD+ 200 µM | > 100 |
| Oc1ccc(-c2ccc(-c3ccc(O)cc3)[se]2)cc1 | ESR2 (Homo sapiens, UniProt Q92731) | antagonist | HEK293T | added: estradiol 10 nM | 0.028 |
| CCCCN1c2ccccc2C=C(c2ccc3ccccc3n2)C1c1ccccc1 (stereo not drawn) | virF (Shigella flexneri, UniProt P0A2T1) | reporter gene expression, inhibitor | Escherichia coli, virB-lacZ reporter strain | 3 h, 37 °C, 6.2% DMSO, added: 1 mM IPTG | > 100 |
| CN1CCC(Oc2ccc(Cl)cc2C(=O)Nc2ccc([N+](=O)[O-])cc2Cl)CC1 | Genome polyprotein, NS2B-NS3 interaction (dengue virus type 2, UniProt P29990) | NS2B-NS3 interaction, inhibitor, split luciferase complementation | dengue virus 2 | – | 10.8 |
| O=c1oc2ccccc2c(O)c1-c1ccc2ccc(Cl)cc2n1 | mushroom tyrosinase | enzyme activity, inhibitor | – | pH 6.5, 25 °C, added: L-tyrosine 1 mM | 15.1 ± 0.8 |
| [O-][n+]1c(CN2CCCCC2)nc2cccc3c2c1-c1ccccc1-3 | TP53 (Homo sapiens, UniProt P04637, M133L/N239Y/N268D/V203A) | DNA binding, complementation | – | thermostable quadruple mutant | 0.06 |
| COc1ccc(C[C@H](NC(=O)[C@H](C)NC(=O)c2cccc(-c3ccccc3)n2)C(=O)N[C@@H](CC(C)C)C(=O)C(=O)Nc2ccccc2)cc1 | Proteasome component C5/PSMB5, chymotrypsin-like site (Homo sapiens, UniProt P20618+P28074) | enzyme activity in cells, inhibitor | – | – | 0.311 |
| Clc1ccc(Cl)c(-c2c(Cl)ccc(Cl)c2Cl)c1Cl | Estrogen receptor (ESR1, Homo sapiens, UniProt P03372) | reporter gene, antagonist, ER-CALUX | T47D.Luc | 24 h, added: estradiol 5 pM | 15.9 |
| Oc1ccc(-c2cccc(Cl)c2)cc1Cl | SULT1E1 (Homo sapiens, UniProt P49888) | enzyme activity, inhibitor, radiometric | – | pH 7.4 | 0.0072 |
| Oc1c(Br)cccc1-c1nc2cc3nc4ccccc4nc3cc2[nH]1 | Genome polyprotein, protease (dengue virus type 2, UniProt P29990) | enzyme activity, inhibitor, fluorescence | – | pH 8.5 | 92.7 |
| COc1cc2c(cc1O)CC[n+]1cc3c(OC)c(OC)ccc3c(C)c1-2 | DRD5 (Homo sapiens, UniProt P21918) | calcium mobilization, antagonist, FLIPR | HEK293T with Galpha15 | 10 min preincubation, D5 receptor, added: dopamine at EC50 | 0.73 |
| NC[C@H](O)c1ccc(O)c(O)c1 | Dopamine transporter (Schistosoma mansoni, UniProt E9LD23) | – | – | – | 17.8 ± 1.8 |
| CCOc1c(S)cnn(-c2ccccc2)c1=O | srtA (Staphylococcus aureus, UniProt Q2FV99) | enzyme activity, inhibitor | – | with preincubation | 35 |
| Cc1c(P(=S)(c2ccccc2)c2ccccc2)n2ccccc2[n+]1C/C=C/c1ccc(Cl)cc1 | NPSR1 (Homo sapiens, UniProt Q6W5P4) | calcium signal, antagonist | – | – | 0.0071 |

For quick reference, copied from above:
| Compound | target | assay | test system | setting | IC50 [µM] |
| --- | --- | --- | --- | --- | --- |
| CCCCN1c2ccccc2C=C(c2ccc3ccccc3n2)C1c1ccccc1 (stereo not drawn) | virF (Shigella flexneri, UniProt P0A2T1) | reporter gene expression, inhibitor | Escherichia coli, virB-lacZ reporter strain | 3 h, 37 °C, 6.2% DMSO, added: 1 mM IPTG | > 100 |
| NC[C@H](O)c1ccc(O)c(O)c1 | Dopamine transporter (Schistosoma mansoni, UniProt E9LD23) | – | – | – | 17.8 ± 1.8 |
